Results from different studies.
Parts stem from different laboratories: compare values within a part only. “And” joins repeats or separate records; there may be more than shown.
Sequence of UniProt Q13177 (whole entry, looked up): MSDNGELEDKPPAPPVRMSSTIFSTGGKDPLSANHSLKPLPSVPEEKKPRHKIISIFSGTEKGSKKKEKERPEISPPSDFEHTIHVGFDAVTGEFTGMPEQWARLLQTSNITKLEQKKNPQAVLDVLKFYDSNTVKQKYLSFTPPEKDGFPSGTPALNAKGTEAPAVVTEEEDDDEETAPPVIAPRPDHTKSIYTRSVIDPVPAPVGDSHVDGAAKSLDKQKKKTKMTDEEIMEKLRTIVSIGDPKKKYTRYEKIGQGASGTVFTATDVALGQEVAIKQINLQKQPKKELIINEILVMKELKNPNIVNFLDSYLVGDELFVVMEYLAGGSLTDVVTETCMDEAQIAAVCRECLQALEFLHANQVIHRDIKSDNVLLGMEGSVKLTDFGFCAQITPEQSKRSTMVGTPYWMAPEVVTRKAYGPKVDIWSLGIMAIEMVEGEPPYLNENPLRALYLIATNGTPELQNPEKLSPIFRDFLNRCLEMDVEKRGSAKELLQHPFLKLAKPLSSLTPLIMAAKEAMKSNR

Sample 1
Target: DNA polymerase theta, ATPase domain (POLQ, Homo sapiens, UniProt O75417)
Sequence of UniProt O75417 (whole entry, unmodified, looked up): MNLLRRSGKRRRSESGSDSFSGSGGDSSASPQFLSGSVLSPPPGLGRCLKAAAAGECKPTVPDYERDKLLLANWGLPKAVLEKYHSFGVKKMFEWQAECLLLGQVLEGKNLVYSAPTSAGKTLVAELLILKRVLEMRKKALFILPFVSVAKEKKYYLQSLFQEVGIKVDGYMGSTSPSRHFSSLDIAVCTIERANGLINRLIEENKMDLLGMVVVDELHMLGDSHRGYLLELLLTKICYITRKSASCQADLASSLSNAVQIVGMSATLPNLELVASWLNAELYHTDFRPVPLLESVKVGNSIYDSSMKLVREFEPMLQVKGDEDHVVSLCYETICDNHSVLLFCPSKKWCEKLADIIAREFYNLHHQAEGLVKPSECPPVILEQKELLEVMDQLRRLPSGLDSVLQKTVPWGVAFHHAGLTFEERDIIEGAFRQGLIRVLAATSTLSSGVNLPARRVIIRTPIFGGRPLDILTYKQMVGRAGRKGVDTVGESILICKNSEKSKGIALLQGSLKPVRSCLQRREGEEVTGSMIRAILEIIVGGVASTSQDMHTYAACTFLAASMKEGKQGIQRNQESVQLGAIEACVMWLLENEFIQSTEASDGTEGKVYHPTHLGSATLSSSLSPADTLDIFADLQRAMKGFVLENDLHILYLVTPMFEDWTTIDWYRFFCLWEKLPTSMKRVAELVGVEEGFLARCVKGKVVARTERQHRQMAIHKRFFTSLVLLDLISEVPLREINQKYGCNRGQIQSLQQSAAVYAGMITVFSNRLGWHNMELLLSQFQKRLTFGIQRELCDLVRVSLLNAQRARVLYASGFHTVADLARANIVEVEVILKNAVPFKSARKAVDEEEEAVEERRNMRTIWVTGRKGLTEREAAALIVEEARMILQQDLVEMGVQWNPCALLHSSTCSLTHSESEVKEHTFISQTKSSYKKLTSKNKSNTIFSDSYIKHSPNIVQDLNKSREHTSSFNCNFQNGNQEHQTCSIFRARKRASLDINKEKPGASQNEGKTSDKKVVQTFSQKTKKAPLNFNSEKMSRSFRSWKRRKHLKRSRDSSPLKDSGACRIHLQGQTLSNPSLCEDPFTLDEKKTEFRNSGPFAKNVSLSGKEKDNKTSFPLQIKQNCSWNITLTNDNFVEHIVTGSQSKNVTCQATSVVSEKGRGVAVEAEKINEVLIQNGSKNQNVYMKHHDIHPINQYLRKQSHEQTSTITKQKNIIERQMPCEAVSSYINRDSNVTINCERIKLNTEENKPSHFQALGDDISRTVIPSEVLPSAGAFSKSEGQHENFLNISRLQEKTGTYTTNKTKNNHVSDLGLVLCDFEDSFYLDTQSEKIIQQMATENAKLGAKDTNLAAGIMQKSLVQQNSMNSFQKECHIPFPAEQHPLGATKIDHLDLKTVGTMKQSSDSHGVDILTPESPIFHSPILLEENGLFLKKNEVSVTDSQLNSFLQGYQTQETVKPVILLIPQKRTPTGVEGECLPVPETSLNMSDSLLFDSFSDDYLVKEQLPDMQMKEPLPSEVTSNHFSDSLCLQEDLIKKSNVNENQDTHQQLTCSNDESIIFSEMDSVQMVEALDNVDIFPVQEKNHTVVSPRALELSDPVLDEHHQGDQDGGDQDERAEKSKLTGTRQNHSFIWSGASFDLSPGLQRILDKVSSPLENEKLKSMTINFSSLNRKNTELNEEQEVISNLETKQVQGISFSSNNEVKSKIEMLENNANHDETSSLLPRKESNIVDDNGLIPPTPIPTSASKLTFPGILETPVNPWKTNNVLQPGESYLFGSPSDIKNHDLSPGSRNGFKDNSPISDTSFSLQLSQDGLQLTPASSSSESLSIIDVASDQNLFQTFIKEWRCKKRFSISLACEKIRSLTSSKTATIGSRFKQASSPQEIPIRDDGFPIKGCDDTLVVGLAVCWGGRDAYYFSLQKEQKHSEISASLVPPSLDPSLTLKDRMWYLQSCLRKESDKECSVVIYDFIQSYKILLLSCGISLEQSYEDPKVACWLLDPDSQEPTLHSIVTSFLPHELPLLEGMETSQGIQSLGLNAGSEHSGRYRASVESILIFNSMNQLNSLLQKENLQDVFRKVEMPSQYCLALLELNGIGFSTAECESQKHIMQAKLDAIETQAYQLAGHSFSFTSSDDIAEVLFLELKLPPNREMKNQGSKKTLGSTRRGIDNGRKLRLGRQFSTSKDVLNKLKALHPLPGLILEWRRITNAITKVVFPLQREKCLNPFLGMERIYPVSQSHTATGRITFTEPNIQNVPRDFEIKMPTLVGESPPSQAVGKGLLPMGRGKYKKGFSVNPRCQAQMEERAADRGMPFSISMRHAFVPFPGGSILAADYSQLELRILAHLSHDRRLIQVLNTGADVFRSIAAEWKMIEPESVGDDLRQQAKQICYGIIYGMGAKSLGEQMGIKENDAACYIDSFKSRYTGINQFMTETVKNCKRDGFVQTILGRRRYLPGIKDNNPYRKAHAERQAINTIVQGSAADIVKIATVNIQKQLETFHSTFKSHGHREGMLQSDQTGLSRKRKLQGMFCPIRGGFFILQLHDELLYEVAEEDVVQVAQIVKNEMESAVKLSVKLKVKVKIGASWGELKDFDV
Effect on: enzyme activity
Action: inhibitor
Concentration: 77 µM
Baseline: untreated
For `c1ccc2c(c1)Nc1ccccc1S2`, the remaining activity was 99.2%.
`O=C(O)Cc1cnc[nH]1` has a remaining activity of 105%.
With `CN1[C@@H](C[C@@H](O)c2ccccc2)CCC[C@H]1C[C@H](O)c1ccccc1` the remaining activity was 99.5%.
The remaining activity of `O=C(O)c1nn(Cc2ccc(Cl)cc2Cl)c2ccccc12` is reported as 95% and 92.6%.
`C[N+]1(C)CCOC(O)(c2ccc(-c3ccc(C4(O)C[N+](C)(C)CCO4)cc3)cc2)C1` (centres unmarked) has a remaining activity of 93%.
`O=C1C=C2C=C[C@@H]3C[C@@]2(O1)[C@H]1CCCCN31` has a remaining activity of 100%.
`OC(c1ccccc1)(c1ccccc1)C1CCNCC1` gave a remaining activity of 102%.
`CCN1C[C@]2(COC)[C@H](O)C[C@H](OC)[C@@]34[C@@H]5C[C@@]6(O)[C@H](OC(=O)c7ccccc7)[C@@H]5[C@@](OC(C)=O)([C@@H]([C@H](OC)[C@H]23)[C@@H]14)[C@@H](O)[C@@H]6OC` gave a remaining activity of 104%.

Sample 2
Structure (SMILES): COC[C@H]1OC(=O)c2coc3c2[C@@]1(C)C1=C(C3=O)[C@@H]2CCC(=O)[C@@]2(C)C[C@H]1OC(C)=O
Effect on: enzyme activity
Action: inhibitor
Concentration: 0.5 µM
Baseline: control
The remaining activity was 86.5% (PAK2 (Homo sapiens, UniProt Q13177)).
The remaining activity was 29.5% (MYLK (Homo sapiens, UniProt Q15746)).
CSK (Homo sapiens, UniProt P41240) — remaining activity: 101%.
For GRK6 (Homo sapiens, UniProt P43250): remaining activity read 101%.
It gave 93.6% for remaining activity (CSF1R (Homo sapiens, UniProt P07333)).
The remaining activity was 88.9% (FGFR4 (Homo sapiens, UniProt P22455)).
The remaining activity was 95.3% (SRPK3 (Homo sapiens, UniProt Q9UPE1)).
GRK2 (Homo sapiens, UniProt P25098) — remaining activity: 98.3%.
It gave 114% for remaining activity (PRKCG (Homo sapiens, UniProt P05129)).
For NUAK1 (Homo sapiens, UniProt O60285): remaining activity read 95%.
The remaining activity was 93.4% (FLT3 (Homo sapiens, UniProt P36888)).
For PRKCE (Homo sapiens, UniProt Q02156): remaining activity read 86.5%.
For EPHB2 (Homo sapiens, UniProt P29323): remaining activity read 102%.

Sample 3
Target: Calcium/calmodulin-dependent protein kinase type II subunit alpha (CAMK2A, Homo sapiens, UniProt Q9UQM7)
Sequence of UniProt Q9UQM7 (whole entry, looked up): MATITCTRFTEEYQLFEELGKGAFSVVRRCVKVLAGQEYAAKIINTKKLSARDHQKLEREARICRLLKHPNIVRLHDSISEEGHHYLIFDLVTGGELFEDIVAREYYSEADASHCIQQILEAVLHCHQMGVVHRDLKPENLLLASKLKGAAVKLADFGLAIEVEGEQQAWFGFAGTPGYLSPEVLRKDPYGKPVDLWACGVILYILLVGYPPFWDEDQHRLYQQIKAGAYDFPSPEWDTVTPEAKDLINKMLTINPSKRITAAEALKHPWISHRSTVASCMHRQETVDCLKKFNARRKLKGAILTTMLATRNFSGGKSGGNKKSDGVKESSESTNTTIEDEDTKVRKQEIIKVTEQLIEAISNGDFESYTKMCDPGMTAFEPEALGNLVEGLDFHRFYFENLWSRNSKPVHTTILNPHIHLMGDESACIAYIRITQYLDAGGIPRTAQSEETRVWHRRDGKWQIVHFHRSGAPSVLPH
Effect on: enzyme activity
Action: inhibitor
Concentration: 10 µM
The inhibition of `C[S@@+]([O-])CCCCN=C=S` is reported as 15%.
The inhibition of `O=C1C=CC[C@@H]2[C@H]3CCC[N@+]4([O-])CCC[C@@H](CN12)[C@@H]34` is reported as -5%.
`C/C=C1/C[C@@H](C)[C@@](C)(O)C(=O)OCC2=CCN3CC[C@@H](OC1=O)[C@@H]23` has an inhibition of 0%.
With `c1csc(-c2ccc(-c3cccs3)s2)c1` the inhibition was -2%.
`CO[C@H]1CC[C@@H](O[C@H]2C[C@H]([C@]3(C)CC[C@]4(C[C@H](O)[C@@H](C)[C@@H]([C@@H](C)/C=C(\C)C(=O)[C@H](C)C[C@H](C)C(=O)O)O4)O3)O[C@]3(O[C@@H]([C@H]4O[C@@](O)(CO)[C@H](C)C[C@@H]4C)C[C@@H]3C)[C@@H]2C)O[C@@H]1C` has an inhibition of -0.12% and -0.31%.
The inhibition of `C=C[C@H]1CN2CC[C@H]1C[C@@H]2[C@@H](O)c1ccnc2ccccc12` is reported as 9%.

Sample 4
Target: Eukaryotic initiation factor 4A-I (EIF4A1, Homo sapiens, UniProt P60842)
Sequence of UniProt P60842 (whole entry, looked up): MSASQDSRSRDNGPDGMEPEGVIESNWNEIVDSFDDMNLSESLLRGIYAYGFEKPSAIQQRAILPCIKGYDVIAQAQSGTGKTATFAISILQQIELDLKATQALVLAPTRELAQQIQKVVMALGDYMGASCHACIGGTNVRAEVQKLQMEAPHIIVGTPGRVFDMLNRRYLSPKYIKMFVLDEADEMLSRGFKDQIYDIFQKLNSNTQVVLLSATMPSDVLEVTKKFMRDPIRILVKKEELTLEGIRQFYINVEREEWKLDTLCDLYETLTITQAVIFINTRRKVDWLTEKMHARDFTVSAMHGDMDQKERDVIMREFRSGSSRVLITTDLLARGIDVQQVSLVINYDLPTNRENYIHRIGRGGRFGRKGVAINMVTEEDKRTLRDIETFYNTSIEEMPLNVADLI
Effect on: RNA clamping
Method: fluorescence polarization
Concentration: concentration not given
Added: FAM-labelled poly r(AG)8 RNA
Reading: higher = more clamping
For `COc1ccc([C@@]23Oc4cc(OC)cc(OC)c4[C@]2(O)C(=O)C[C@H]3c2ccccc2)cc1`, “fluorescence polarization change” read 50.2 mP.
For `COc1ccc([C@@]23Oc4cc(OC)cc(OC)c4[C@@]24NC(C2CC2)=N[C@@]4(O)[C@H](C(=O)N(C)OC)[C@H]3c2ccccc2)cc1`, “fluorescence polarization change” read 80.3 mP.
For `COC(=O)[C@@H]1[C@@H](c2ccccc2)[C@@]2(c3ccc(OC)cc3)C(=O)[C@]1(O)c1ccccc1N2C`, “fluorescence polarization change” read -2.2 mP and 9.5 mP.
Under “fluorescence polarization change”, `COc1cc(F)cc2c1[C@]1(O)[C@H](O)[C@H](/C(N)=N/O)[C@@H](c3ccccc3)[C@]1(c1ccc(Br)cc1)O2` is recorded as 60.6 mP.
Under “fluorescence polarization change”, `COc1ccc([C@@]23Oc4cc(OC)cc(OC)c4[C@]2(O)c2nc(-c4ccc(OCc5ccccc5)cc4)[nH]c(=O)c2[C@H]3c2ccccc2)cc1` is recorded as 1.9 mP.
`COc1ccc([C@@]23Oc4cc(OC)cc(OC)c4[C@]2(O)c2nc(-c4ccc(F)cc4)[nH]c(=O)c2[C@H]3c2ccccc2)cc1`: “fluorescence polarization change” 21.2 mP.
Under “fluorescence polarization change”, `COC(=O)[C@H]1[C@H](c2ccccc2)[C@@]2(c3ccc(OC)cc3)Oc3cc(OC)cc(OC)c3[C@]1(O)[C@H]2O` is recorded as -2.2 mP.
`CONC(=O)[C@H]1[C@@H](O)[C@@]2(O)c3c(OC)cc(OC)cc3O[C@@]2(c2ccc(OC)cc2)[C@@H]1c1ccccc1` — result for “fluorescence polarization change”: 63.9 mP and 22.2 mP and 74.6 mP.

Some of these lines once more (sample 4):
Under “fluorescence polarization change”, `COC(=O)[C@H]1[C@H](c2ccccc2)[C@@]2(c3ccc(OC)cc3)Oc3cc(OC)cc(OC)c3[C@]1(O)[C@H]2O` is recorded as -2.2 mP.
`COc1ccc([C@@]23Oc4cc(OC)cc(OC)c4[C@]2(O)c2nc(-c4ccc(F)cc4)[nH]c(=O)c2[C@H]3c2ccccc2)cc1`: “fluorescence polarization change” 21.2 mP.
`CONC(=O)[C@H]1[C@@H](O)[C@@]2(O)c3c(OC)cc(OC)cc3O[C@@]2(c2ccc(OC)cc2)[C@@H]1c1ccccc1` — result for “fluorescence polarization change”: 63.9 mP and 22.2 mP and 74.6 mP.
